Assay results from different studies.
Every numbered part comes from another study and shows a few of its results, in no order. Substitutions count along the parent as printed.

Sample 1 — technique: RNA Bind-n-Seq; molecule type: RNA; sample: in vitro; tested at: not given; relative to: input RNA pool; direction: higher = stronger binding
Target: RING finger protein unkempt homolog, zinc fingers 1-6, GST-SBP tag (UNK, Homo sapiens, UniProt Q9C0B0, residues 30-357)
UniProt Q9C0B0, sequence (30-357, looked up): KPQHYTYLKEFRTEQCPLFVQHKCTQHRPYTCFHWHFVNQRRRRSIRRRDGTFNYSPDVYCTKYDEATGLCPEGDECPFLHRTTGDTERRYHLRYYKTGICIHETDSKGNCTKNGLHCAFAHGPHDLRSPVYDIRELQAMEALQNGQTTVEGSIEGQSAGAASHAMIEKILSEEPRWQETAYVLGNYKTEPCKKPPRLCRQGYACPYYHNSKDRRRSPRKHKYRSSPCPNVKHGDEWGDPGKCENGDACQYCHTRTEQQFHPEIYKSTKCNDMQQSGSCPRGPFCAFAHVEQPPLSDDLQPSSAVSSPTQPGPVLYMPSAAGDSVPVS
Setting: RNA with constant flanks, human and mouse sites, ends assumed
The bound/input enrichment of `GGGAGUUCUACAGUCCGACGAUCGGUUUGGUUAUGACAGAGGCACAUCUUCCUAGCCAGACUUUGGAGCAGGGACUCGAUGUCCUGGAAAUUAUGAGAAACAUUCACAUAUUUGUCUCAAGAUACCUCUAUAAUCUCAAUAACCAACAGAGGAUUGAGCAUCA` is reported as 0.105 ratio.
`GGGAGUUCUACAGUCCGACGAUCGGGGAGAAACCUUACGAGUGUGUGCAGUGUGGGAAAUCCUACAGUCAGAGCUCAAACCUCUUCAGACAUCAGAGACGACACAAUGCAGAAAAACUUUUGAAUGUUGUGAAGGUUUAAGAACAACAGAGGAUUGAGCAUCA` gave a bound/input enrichment of 0.243 ratio.
With `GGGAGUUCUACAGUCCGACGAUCCAGACCAGGGUGUGCUGGGAGUCCAGGACUCUCGGGGUUUAUGUCAAUCAGUGCAAUUGUCUGUAUUUCUCAGUGGGGCCAGGUUGGGAAGCAACAGGCCAGGUGGUGAGUUCUCAGAGGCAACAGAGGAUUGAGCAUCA` the bound/input enrichment was 0.106 ratio.
The bound/input enrichment of `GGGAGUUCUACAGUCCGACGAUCGCCUUGGCUCCACCCAGUGUGCUUAGUACCAACGUAGGCAGUGUGUACAACACGAAGAAAGUAGGCAAGAGGCUCAACAUCCAGCUUAAGAAAGGUACAGAAGGACUGGGAUUCAGCAUCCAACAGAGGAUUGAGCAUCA` is reported as 0.279 ratio.
For `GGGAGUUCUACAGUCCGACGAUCAGGUUUGAAGUGAAGAUGAUGCUCAUGAACCUUAUCUCCAGAUUGGUGGGAAUUCAUGAGCUUUUCCUCUUCAAUUUCUAUCCCUUUUUGCAAAGGUUUCUGCAGCCCCACCAAAGAGAACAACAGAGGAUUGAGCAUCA`, the bound/input enrichment was 0.0612 ratio.
With `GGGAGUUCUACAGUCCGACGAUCUAGUGGAUAAGUGGAAACUGAGAUGUGUCCGUUCCUCCCGAGGCACUAGGAUGAUGGCGGGCUGUCAUAAUCAGGAAGCCUUCUGGUUACGGAAUUGCUUUUGCACCUAAUUUUAAGGACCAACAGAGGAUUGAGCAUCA` the bound/input enrichment was 0.165 ratio.
The bound/input enrichment of `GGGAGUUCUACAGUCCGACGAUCAAGCUGCUGUGUGGCCUGCUGUCCGAUCGCCUGCACAUCAGCCCGGACCGGGUCUACAUCAACUAUUACGACAUGAACGCUGCCAACGUGGGCUGGAACGGUUCCACCUUCGCUUGAGUCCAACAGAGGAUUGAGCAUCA` is reported as 0.0531 ratio.
With `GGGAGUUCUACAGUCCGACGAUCAAUCCAGUGGAUAUCUUGACCUACGUGGCUUGGAAAAUCAGUGGCUUUCCCAAAAACCGAGUAAUUGGAAGUGGUUGCAAUCUGGAUUCAGCGCGGUUCCGUUACCUGAUGGGAGAGAGGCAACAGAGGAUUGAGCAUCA` the bound/input enrichment was 0.144 ratio.

Sample 2 — target: CCNB2, cyclin fold, Cln2 fusion (human); technique: yeast growth competition, sequencing; sample: yeast; setting: weak parent motif; relative to: not given; direction: higher = stronger binding
Parent: SLBP docking peptide (human); ARYKRKLLINDFG
Under “normalised enrichment score”, `Y3D` is recorded as 0.306.
`R2C` — result for “normalised enrichment score”: 0.466.
Under “normalised enrichment score”, `K6L` is recorded as 1.02.
`A1I`: “normalised enrichment score” 0.226.
`K6Q`: “normalised enrichment score” 1.2.
Under “normalised enrichment score”, `L7T` is recorded as 0.347.
`L7A` — result for “normalised enrichment score”: 0.217.
Under “normalised enrichment score”, `R2T` is recorded as 0.962.
`K4E`: “normalised enrichment score” 0.294.
For `K6V`, “normalised enrichment score” read 0.609.
For `I9H`, “normalised enrichment score” read 0.82.
Under “normalised enrichment score”, `D11P` is recorded as 0.897.
`K6E`: “normalised enrichment score” 0.415.
`A1F` — result for “normalised enrichment score”: 0.199.

Sample 3 — technique: RNA Bind-n-Seq; molecule type: RNA; sample: in vitro; tested at: 365 nM; relative to: no-protein control; direction: higher = stronger binding
Target: RNA binding protein fox-1 homolog 2, RRM domain, GST-SBP tag (RBFOX2, Homo sapiens, UniProt O43251-10, residues 100-194)
Setting: natural RNA segment, single round, ends assumed
Construct (chain): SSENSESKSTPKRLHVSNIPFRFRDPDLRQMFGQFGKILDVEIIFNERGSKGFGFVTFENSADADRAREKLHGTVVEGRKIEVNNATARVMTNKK
`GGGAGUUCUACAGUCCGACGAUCUCCUUCUUCUUUUAUGUGUCUCAGAAUAUUUUUGAGGCGAAAGCGUCUGUCUCUUGGCUAUUUUAACCUAAAAUAACCAGUCUAGUUCUAUCCCCUCUUCUUGUAAAGCAUGGAAUUCUCGGGUGCCAA`: “RBNS enrichment (R)” 2.18.
For `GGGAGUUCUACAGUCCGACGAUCAACAAUGUGCCUACAUUACCAGCUGGCUUCAGUGAUUCCUCUGUGUCCCUUUUUGGUUUCUGGAAAGAUUCUUUGUCAACAUUAGUAACUGAUACAUAGAACCAAGGAGCUGGAAUUCUCGGGUGCCAA`, “RBNS enrichment (R)” read 0.29.
Under “RBNS enrichment (R)”, `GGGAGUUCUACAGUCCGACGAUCACUUCACUAGAGCUAAGACACUGCUGGCAUUGUGGCCCCAUCCUUCCAAGACACAGGGAAGGAAGGCAGAGGCUCCUCAGGGCCUUAUGGUAGGCCUAGCAGGUAGAGCUUGGAAUUCUCGGGUGCCAA` is recorded as 0.465.
`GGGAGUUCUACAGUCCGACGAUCAGGGAGCAGCUGAUUUUUUCAUUUUCUUGCCACAAGGCAUGUUGACAGAAGAAUAAAAUUCUUUGUAGACAGUCAUCUUCAAAUGUACUGUCCGCCCCUUGCCUGGAGACUGGAAUUCUCGGGUGCCAA`: “RBNS enrichment (R)” 2.5.
`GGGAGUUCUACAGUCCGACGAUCGCAGCCUAAGCUGAUUUGGAUCUGGGUUUCUCCUCCAGGUAGGGUUGUUUUGUUUCCUUCGCCCUUUUCUUCUCUGUGUAAAGGCGAUUCCCUAGACCCAGGAUGGACCCUGGAAUUCUCGGGUGCCAA`: “RBNS enrichment (R)” 1.29.
`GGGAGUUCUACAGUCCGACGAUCAGGUGCUGAGCCCCCGCCUUGCACUGCGCCUGCCCCACGGUGUCCCCGCCGGGAAGCAGCCCCGGCUCCUGAAUCACCCUCGCUCCGUCAGGCGGGACUCGUGUCCCAGAUGGAAUUCUCGGGUGCCAA`: “RBNS enrichment (R)” 1.5.
Under “RBNS enrichment (R)”, `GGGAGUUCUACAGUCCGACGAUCGGUCUCUGCUGGGGUGUCUGACCCUCCACCACCUCACCUUGUUGGUACCUCCCUCCCUGAAUUCCUGAGCCAGCAACUCUUACUGGCCCCUCCAUAGGGUCUUGCUGCCAUGGAAUUCUCGGGUGCCAA` is recorded as 0.38.
`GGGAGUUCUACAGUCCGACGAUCUGAGUCUGAAAUUAGUGUUAAAGAAGUGUGGUGCCUGAUGUUAUAACAACACCUCAUUCUUAACUGUGUGGCCAAUGUCAGGUAUACCAAAGCAUUCCUCUGACUGCUUUUGGAAUUCUCGGGUGCCAA` — result for “RBNS enrichment (R)”: 0.446.

Mixed results
`PhoQ, residues 284 288 289 292 302 303 SSTMSV` gave a fold induction of 18.4 (PhoP, residues 12 14 15 18 19 STHWV (Escherichia coli, UniProt P23836); Sort-seq, item: YFP reporter; E. coli; PhoQ-PhoP variant library, with: 10 µM Mg2+; relative to: high Mg2+ state, higher = stronger signaling).

Repeated from above (sample 3):
`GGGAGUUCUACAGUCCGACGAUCUGAGUCUGAAAUUAGUGUUAAAGAAGUGUGGUGCCUGAUGUUAUAACAACACCUCAUUCUUAACUGUGUGGCCAAUGUCAGGUAUACCAAAGCAUUCCUCUGACUGCUUUUGGAAUUCUCGGGUGCCAA` — result for “RBNS enrichment (R)”: 0.446.
`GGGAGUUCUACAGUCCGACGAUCAGGUGCUGAGCCCCCGCCUUGCACUGCGCCUGCCCCACGGUGUCCCCGCCGGGAAGCAGCCCCGGCUCCUGAAUCACCCUCGCUCCGUCAGGCGGGACUCGUGUCCCAGAUGGAAUUCUCGGGUGCCAA`: “RBNS enrichment (R)” 1.5.
`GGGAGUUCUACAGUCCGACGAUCGCAGCCUAAGCUGAUUUGGAUCUGGGUUUCUCCUCCAGGUAGGGUUGUUUUGUUUCCUUCGCCCUUUUCUUCUCUGUGUAAAGGCGAUUCCCUAGACCCAGGAUGGACCCUGGAAUUCUCGGGUGCCAA`: “RBNS enrichment (R)” 1.29.
